Assay results of several laboratories.
A part holds a random share of what one study measured. Several values in a cell are separate wells, animals, samples, runs or records.
UniProt P11802, sequence (whole entry, looked up): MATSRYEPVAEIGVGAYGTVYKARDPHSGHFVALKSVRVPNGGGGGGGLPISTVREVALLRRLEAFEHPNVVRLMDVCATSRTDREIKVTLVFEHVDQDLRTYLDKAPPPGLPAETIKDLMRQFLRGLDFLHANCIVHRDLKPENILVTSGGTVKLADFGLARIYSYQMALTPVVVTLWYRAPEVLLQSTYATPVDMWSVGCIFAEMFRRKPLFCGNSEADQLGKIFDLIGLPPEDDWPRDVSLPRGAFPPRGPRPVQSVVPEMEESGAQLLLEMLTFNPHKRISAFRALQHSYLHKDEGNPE
UniProt Q92772, sequence (whole entry, looked up): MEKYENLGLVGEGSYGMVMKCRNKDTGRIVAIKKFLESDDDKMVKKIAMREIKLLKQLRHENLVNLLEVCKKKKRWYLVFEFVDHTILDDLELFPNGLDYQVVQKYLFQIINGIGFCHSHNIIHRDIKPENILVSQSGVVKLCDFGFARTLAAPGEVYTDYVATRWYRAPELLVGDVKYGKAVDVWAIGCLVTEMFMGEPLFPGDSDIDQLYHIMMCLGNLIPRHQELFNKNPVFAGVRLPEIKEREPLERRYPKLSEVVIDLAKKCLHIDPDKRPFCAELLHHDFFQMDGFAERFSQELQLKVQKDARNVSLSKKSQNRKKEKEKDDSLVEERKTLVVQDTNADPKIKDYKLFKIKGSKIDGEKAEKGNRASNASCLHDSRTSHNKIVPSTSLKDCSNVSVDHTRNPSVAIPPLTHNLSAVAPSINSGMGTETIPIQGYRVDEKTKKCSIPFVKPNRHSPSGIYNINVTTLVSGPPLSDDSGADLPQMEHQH
UniProt O43293, sequence (whole entry, looked up): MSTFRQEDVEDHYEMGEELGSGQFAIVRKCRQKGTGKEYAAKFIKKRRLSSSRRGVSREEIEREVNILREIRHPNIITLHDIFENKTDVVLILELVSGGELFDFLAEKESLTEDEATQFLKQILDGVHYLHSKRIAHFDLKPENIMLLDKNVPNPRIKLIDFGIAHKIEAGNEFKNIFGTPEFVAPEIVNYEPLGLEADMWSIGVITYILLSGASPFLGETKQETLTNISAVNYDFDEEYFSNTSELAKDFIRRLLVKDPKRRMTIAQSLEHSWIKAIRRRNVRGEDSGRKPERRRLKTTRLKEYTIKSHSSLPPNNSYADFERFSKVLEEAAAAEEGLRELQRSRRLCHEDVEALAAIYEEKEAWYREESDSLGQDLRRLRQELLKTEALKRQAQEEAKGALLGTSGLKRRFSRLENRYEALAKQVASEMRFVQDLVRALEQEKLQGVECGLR
UniProt O00444, sequence (whole entry, looked up): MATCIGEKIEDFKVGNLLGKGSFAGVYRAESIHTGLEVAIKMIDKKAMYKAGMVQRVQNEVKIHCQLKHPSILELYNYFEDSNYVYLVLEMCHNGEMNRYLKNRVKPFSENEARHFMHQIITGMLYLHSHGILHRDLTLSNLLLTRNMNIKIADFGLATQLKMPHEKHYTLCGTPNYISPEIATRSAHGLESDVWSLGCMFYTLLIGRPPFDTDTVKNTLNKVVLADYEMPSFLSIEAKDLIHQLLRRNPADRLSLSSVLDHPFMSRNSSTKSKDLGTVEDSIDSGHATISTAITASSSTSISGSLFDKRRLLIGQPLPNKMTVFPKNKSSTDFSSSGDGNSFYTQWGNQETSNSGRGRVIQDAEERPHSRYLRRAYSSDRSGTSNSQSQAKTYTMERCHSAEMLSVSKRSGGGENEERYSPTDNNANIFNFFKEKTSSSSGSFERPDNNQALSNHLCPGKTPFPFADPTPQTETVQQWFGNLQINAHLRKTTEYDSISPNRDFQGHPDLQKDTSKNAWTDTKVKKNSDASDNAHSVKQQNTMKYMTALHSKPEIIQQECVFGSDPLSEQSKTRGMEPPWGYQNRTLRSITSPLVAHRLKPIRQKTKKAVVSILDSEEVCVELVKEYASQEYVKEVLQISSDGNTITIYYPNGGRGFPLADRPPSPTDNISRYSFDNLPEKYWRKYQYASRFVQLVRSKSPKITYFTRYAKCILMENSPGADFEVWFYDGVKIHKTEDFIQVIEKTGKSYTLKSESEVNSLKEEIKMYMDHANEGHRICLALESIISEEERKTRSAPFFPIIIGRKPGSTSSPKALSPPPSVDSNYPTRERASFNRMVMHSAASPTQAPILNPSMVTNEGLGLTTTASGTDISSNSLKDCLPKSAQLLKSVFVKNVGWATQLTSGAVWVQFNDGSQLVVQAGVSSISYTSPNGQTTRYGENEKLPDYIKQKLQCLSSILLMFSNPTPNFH
UniProt Q6PHR2, sequence (whole entry, looked up): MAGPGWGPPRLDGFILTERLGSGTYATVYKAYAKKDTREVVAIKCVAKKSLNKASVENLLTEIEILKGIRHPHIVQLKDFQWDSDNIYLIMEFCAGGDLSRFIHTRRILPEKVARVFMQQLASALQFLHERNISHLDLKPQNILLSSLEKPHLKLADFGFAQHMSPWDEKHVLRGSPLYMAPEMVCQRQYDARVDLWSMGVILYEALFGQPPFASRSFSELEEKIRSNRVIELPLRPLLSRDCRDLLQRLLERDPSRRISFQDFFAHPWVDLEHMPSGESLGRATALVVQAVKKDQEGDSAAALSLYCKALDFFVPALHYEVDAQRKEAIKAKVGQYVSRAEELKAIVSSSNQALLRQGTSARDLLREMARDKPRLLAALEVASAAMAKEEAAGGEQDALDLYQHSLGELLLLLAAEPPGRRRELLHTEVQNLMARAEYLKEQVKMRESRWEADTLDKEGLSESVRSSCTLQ
UniProt Q9H2K8, sequence (whole entry, looked up): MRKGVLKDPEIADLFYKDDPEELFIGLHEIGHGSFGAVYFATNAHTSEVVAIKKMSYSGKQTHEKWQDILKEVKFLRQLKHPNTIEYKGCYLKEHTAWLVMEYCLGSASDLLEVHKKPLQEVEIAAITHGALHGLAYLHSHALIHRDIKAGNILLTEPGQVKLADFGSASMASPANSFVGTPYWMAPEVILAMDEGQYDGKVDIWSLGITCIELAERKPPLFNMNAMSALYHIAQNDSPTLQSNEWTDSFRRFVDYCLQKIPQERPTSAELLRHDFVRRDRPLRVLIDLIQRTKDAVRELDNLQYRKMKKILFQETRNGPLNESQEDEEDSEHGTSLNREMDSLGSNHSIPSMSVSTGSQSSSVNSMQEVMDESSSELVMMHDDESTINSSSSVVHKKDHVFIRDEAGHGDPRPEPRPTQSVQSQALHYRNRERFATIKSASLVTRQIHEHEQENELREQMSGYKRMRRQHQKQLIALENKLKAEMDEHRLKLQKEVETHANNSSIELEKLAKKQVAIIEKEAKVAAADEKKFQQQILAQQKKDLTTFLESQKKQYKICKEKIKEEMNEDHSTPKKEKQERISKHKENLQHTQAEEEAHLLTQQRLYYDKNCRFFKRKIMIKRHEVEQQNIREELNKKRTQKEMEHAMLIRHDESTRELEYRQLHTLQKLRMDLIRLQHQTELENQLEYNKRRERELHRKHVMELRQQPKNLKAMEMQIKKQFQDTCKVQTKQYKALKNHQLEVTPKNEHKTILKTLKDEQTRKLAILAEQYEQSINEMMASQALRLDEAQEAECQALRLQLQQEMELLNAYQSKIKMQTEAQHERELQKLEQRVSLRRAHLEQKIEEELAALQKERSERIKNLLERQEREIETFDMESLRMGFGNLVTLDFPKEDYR
UniProt Q13163, sequence (whole entry, looked up): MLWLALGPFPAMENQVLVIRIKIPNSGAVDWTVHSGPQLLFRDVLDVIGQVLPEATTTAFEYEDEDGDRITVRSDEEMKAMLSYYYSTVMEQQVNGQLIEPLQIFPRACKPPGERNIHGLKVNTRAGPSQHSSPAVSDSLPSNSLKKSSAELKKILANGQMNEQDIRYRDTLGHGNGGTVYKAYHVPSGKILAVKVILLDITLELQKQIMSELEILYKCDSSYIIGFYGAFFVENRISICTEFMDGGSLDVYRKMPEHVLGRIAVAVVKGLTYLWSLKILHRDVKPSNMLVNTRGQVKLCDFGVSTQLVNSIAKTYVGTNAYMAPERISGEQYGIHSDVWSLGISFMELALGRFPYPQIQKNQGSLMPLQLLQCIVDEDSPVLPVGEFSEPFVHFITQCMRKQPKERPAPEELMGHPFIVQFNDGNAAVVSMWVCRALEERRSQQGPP

Block 1 — read-out: enzyme activity; tested at: 5 µM; relative to: untreated control; quantity: remaining activity
Structure (SMILES): O=C(Nc1cnn(-c2csc(C(=O)NC3COC3)c2)c1)Nc1c(F)cccc1Cl
ABL1 (Homo sapiens, UniProt P00519): 99.6%
Cyclin-dependent kinase 4, with cyclin D1 (CDK4, Homo sapiens, UniProt P11802): 90.2%
DAPK3 (Homo sapiens, UniProt O43293): 100%
TTBK1 (Homo sapiens, UniProt Q5TCY1): 80.8%

Block 2 — SMILES: C=CCc1ccc(O)c(-c2ccc(O)c(CC=C)c2)c1; read-out: chloride current; quantity: normalized current
ANO1 del476-501: Anoctamin-1 (ANO1, Homo sapiens, UniProt Q5XXA6, del476-501)
UniProt Q5XXA6, sequence (whole entry, unmodified, looked up): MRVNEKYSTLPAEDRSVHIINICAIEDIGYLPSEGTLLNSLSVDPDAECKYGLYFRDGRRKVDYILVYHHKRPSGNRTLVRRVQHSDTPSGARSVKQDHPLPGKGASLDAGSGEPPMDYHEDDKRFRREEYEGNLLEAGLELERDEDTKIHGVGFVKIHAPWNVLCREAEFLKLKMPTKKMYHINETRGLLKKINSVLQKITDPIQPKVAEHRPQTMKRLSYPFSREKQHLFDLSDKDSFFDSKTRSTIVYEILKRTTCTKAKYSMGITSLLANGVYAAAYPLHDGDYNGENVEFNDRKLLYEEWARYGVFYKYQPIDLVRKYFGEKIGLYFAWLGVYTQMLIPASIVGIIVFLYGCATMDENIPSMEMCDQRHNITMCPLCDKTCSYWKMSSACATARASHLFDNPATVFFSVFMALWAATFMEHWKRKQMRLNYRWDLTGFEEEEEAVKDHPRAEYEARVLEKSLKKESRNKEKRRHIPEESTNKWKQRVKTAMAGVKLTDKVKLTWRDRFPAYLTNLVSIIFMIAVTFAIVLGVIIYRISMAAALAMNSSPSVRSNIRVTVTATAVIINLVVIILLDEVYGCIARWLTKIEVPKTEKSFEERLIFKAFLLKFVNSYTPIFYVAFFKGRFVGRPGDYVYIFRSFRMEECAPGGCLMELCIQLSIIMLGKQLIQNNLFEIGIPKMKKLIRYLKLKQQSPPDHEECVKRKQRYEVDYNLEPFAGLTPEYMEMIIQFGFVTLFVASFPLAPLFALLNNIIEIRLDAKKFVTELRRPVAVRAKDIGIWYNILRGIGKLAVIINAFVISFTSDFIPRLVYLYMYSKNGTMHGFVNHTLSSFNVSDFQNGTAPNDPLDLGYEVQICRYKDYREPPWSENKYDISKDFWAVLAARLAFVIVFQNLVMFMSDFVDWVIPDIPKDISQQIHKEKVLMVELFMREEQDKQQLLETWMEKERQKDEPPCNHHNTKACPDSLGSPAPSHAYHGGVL
ANO1 del476-501; whole-cell voltage clamp; 30 µM, wild type, I-V at -60 mV, added: 4 µM Ca2+: -0.0427
Anoctamin-1 (ANO1, Homo sapiens, UniProt Q5XXA6, del476-501/R541A); inhibitor, inside-out patch clamp; 10 µM, R515A mutant at -100 mV: -0.663
Anoctamin-1 (ANO1, Homo sapiens, UniProt Q5XXA6, del476-501/F628A); whole-cell voltage clamp; 1 µM, I-V at 60 mV, added: 4 µM Ca2+: 0.485
TMEM16A (human) K603A/E623A; inside-out patch clamp; 10 µM, membrane voltage -40 mV: -0.175
ANO1 del476-501; whole-cell voltage clamp; 10 µM, wild type, I-V at 80 mV, added: 4 µM Ca2+: 0.24

Block 3 — host: human; matrix: microsomes or S9; tested at: 2 µM; time: 0.5 h; quantity: remaining compound
CCCNS(=O)(=O)c1cc(N2CCCCS2(=O)=O)ccc1OC: 78.4%
CCc1ccc(S(=O)(=O)NCc2cccc(CS(C)(=O)=O)c2)s1: 17.4%
COCCCNC(=O)C(C)NS(=O)(=O)c1ccc(Br)cc1 (centres unmarked): > 99%
CSC1CC2CCC(C1)N2C(=O)c1cc(C2CC2)on1 (centres unmarked): 30.6%

Block 4 — read-out: cell-free assay; technique: competition with immobilised ligand; tested at: 1 µM; quantity: remaining binding
SMILES: CCCOc1ccc([C@@H]2[C@@H](C(=O)O)[C@H](c3ccc4c(c3)OCO4)CN2CC(=O)Nc2c(CC)cccc2CC)cc1
CDK7 (Homo sapiens, UniProt P50613): 86%
MYLK3 (Homo sapiens, UniProt Q32MK0): 87%
EGFR (Homo sapiens, UniProt P00533, A750P/del747-749): 78%
MAP2K5 (Homo sapiens, UniProt Q13163): 100%
CDKL2 (Homo sapiens, UniProt Q92772): 96%
ULK3 (Homo sapiens, UniProt Q6PHR2): 83%
AKT3 (Homo sapiens, UniProt Q9Y243): 100%
EGFR (Homo sapiens, UniProt P00533, T790M): 93%
TAOK3 (Homo sapiens, UniProt Q9H2K8): 100%
Non-receptor tyrosine-protein kinase TYK2, JH1 (TYK2, Homo sapiens, UniProt P29597): 74%
PLK4 (Homo sapiens, UniProt O00444): 82%
Tyrosine-protein kinase ABL1, phosphorylated (ABL1, Homo sapiens, UniProt P00519, H396P): 90%
EPHA8 (Homo sapiens, UniProt P29322): 97%
FLT3 (Homo sapiens, UniProt P36888, D835V): 62%

Single results of other studies
N#Cc1c(Oc2ccc(F)c(NC(=O)Cc3cccc(C(F)(F)F)c3)c2)ccc2nc(NC(=O)C3CC3)sc12
inhibition (RIPK3 (Homo sapiens, UniProt Q9Y572); kinase activity, inhibitor, ADP-Glo; 250 nM, 1 h): 89.3%

CCCN1C(=O)[C@H](CC(C)C)NC(=O)[C@@H](N(C)C(=O)[C@H](CC2CCC2)NC(=O)[C@@H]2C[C@@H](F)CN2C(=O)[C@@](C)(O)C(F)(F)F)CCCCNC(=O)C2(CC2)NC(=O)[C@@H]1Cc1cc(Cl)ccc1Cl
tumour volume (mouse NCI-H1048 xenograft; iv, 100 mg/kg once daily, day 4): 290 mm3 and 280 mm3 and 339 mm3 and 208 mm3 and 184 mm3 and 358 mm3 and 364 mm3 and 318 mm3

Repeated from above (block 4):
PLK4 (Homo sapiens, UniProt O00444): 82%
Tyrosine-protein kinase ABL1, phosphorylated (ABL1, Homo sapiens, UniProt P00519, H396P): 90%
EPHA8 (Homo sapiens, UniProt P29322): 97%
FLT3 (Homo sapiens, UniProt P36888, D835V): 62%
